# Values quoted from earlier work, collected from citations in different studies.
# Each line is one published result; not all experiments were run side by side. ± gives the spread as reported.
SMILES,tested on,assay,system,conditions,how to read,quantity,value
CCCCCC(=O)NC(CC(=O)N(CC)CC)C(=O)NC(Cc1ccc(F)cc1)C(=O)NC(Cc1ccc(F)cc1F)C(=O)C1(C)CO1 (stereo not shown),,,,,,plasma half-life,2.4 h
CN1CCN(c2ccc3[nH]c(-c4ccc5[nH]c(-c6ccc(OCCCCNC(=O)c7ccc8c(c7)C7(OC8=O)c8ccc(N(C)C)cc8C(C)(C)c8cc(N(C)C)ccc87)cc6)nc5c4)nc3c2)CC1,,,PBS,,,fluorescence quantum yield,0.033 ± 0.003
O=C(Nc1ccc(OC(F)(F)F)cc1)NC1CCN(C(=O)C2CC2)CC1,,experimental,,,,logP,3.28
[O-]c1cccc(-c2cccc([O-])n2)n1.[Ru+2].c1cnc2c(c1)ccc1cccnc12.c1cnc2c(c1)ccc1cccnc12,,,CD3OD,basic deprotonated form,,singlet oxygen quantum yield,0.87
CCCCCCCCCCCCOC(=O)c1ccc(O)cc1,,octanol-water,,,,logP,7.28
O=C(O)CCCCC1(N(CC(=O)O)CC(=O)O)CN(CC(=O)O)CCN(CC(=O)O)C1,,"pH-potentiometry, item: logK4H",0.15 M NaCl,25 °C,,protonation constant (log),3.73
Cc1cc(-c2ccc(C#N)cc2)cc(C)c1Oc1ccnc(Nc2ccc(C#N)cc2)n1,,,human liver microsomes,,,half-life,14.6 min
[Cu+2].c1cc2nc(c1)CNCCNCCNC2,,cyclic voltammetry,DMF,scan rate 100 mV/s,baseline: Fc/Fc+,anodic peak potential,-902 mV
COc1cc(-c2nc3ccccc3s2)cc(CN2CCN(CC(=O)O)CCN(Cc3cc(-c4nc5ccccc5s4)cc(OC)c3O)CC2)c1O,,,,68Ga(III) complex,,logD,1.66
O=C(Nc1cnccc1-c1ccc([18F])cc1)c1ccnc(NC(=O)C2CC2)c1,,PET,wild-type mice,5 min,,brain uptake,0.92 ± 0.28 SUV
COc1ccc(CNc2nc([C@H]3CC[C@H](C(=O)O)CC3)nc3sc4ccccc4c23)cc1Cl,,,mouse,,,half-life,18 min
CC1(N(CC(=O)O)CC(=O)O)CN(CC(=O)O)CCN(CC(=O)O)C1,,"pH-potentiometry, item: logK2H",0.1 M KCl,25 °C,,protonation constant (log),6.52
CC(C)COC(=O)c1ccc(O)cc1,,,,pH 7.4,,logD,2.86
Oc1cccc(-c2cccc(O)n2)n1.[Cl-].[Cl-].[Ru+2].c1cnc2c(c1)ccc1cccnc12.c1cnc2c(c1)ccc1cccnc12,,,CD3OD,basic deprotonated form,,singlet oxygen quantum yield,0.87
Cc1ccc2c(c1)nc(CCN1C(=O)c3cccc4cccc(c34)C1=O)n2-c1ccncc1,,,Sprague-Dawley rat,"oral, 10 mg/kg",,half-life,108 min
CC(O)CN1CCN(CC(=O)O)CCN(CC(=O)O)CCN(CC(=O)O)CC1 (stereo not shown),,,0.1 M Me4NCl,25 °C,,log K GdL,23.8
COC1=CC(c2ccc[nH]2)=NC1=CNC12CC3CC(CC(C3)C1)C2.Cl,,metabolic stability,mouse liver microsomes,,,half-life,11.5 min
O=C(O)CN1CCNCCN(CC(=O)O)Cc2cccc(n2)C1,,,,0.15 M NaCl,,sum of log KiH,23.7
Cc1ncsc1-c1ccc(CNC(=O)[C@@H]2C[C@@H](O)CN2C(=O)[C@@H](NC(=O)COCCOCCOCCNC(=O)C[C@@H]2N=C(c3ccc(Cl)cc3)c3c(sc(C)c3C)-n3c(C)nnc32)C(C)(C)C)cc1,,,mouse,"subcutaneous, 5 mg/kg",,bioavailability,83%
COc1ccc2c(c1)O[B-]1(c3ccccc3)OC(=O)C(c3ccccc3)=N[N+]1=C2 (stereo not shown),,,buffer with 1.5% acetonitrile,"concentration not given, pH 7",,hydrolysis half-life,2 min
O=C(O)CN1CCN(CC(=O)O)CCN(CC(=O)O)CC1,,,0.1 M Me4NCl,,,log KH1,13.2
CN1CCN(c2ccc3[nH]c(-c4ccc5[nH]c(-c6ccc(OCCCCNC(=O)c7ccc8c(c7)C7(OC8=O)c8ccc(N(C)C)cc8[Si](C)(C)c8cc(N(C)C)ccc87)cc6)nc5c4)nc3c2)CC1,,,PBS with 0.1% SDS,,,fluorescence quantum yield,0.524 ± 0.001
O=C(Oc1ccccc1)c1ccc(O)cc1,,octanol-water,,,,logP,3.26
Cc1cc(NC(=O)Cn2nnc(-c3cccc(F)c3)n2)n(C2CCCCC2)n1,,,liver microsomes,,,metabolic stability,unstable
O=C(O)CN1CCNCCNCCN(CC(=O)O)CC1,,,0.1 M KCl,,,log KH1,11.4
c1ccc2c(c1)CCNC2c1c[nH]c2ccncc12 (stereo not shown),COLO 320 ABCB1-resistant colon,cytotoxicity,,,,IC50,> 100000 nM
CCn1c(=O)c(-c2cc(NC(=O)Nc3ccccc3)c(F)cc2Br)cc2cnc(N)cc21,,,patients,"150 mg once daily, at least 15 days, geometric mean",,trough concentration,546 ng/mL
CN1CCN(c2ccc3[nH]c(-c4ccc5[nH]c(-c6ccc(OCCCCNC(=O)c7ccc8c(c7)C(=O)OC87c8ccc(N(C)C)cc8C(C)(C)c8cc(N(C)C)ccc87)cc6)nc5c4)nc3c2)CC1,,,PBS,,,fluorescence quantum yield,0.052 ± 0.004
Clc1cc2nc(c1)CNCCNCCNC2.[Cu+2],,cyclic voltammetry,DMF,scan rate 100 mV/s,baseline: Fc/Fc+,anodic peak potential,-878 mV
O=C(O)c1cccc(CN2Cc3cccc(n3)CN(Cc3cccc(C(=O)O)n3)Cc3cccc(n3)C2)n1,,protonation constant,0.1 M KCl,,,log KHL,8.41
C[C@@H]1O[C@@H](O[C@@H]2[C@@H](O)[C@H](O)[C@@H](CO)O[C@H]2c2c(O)cc(O)c3c(=O)cc(-c4ccc(O)cc4)oc23)[C@H](O)[C@H](O)[C@H]1O,,,,,,logP,-0.9
Ic1cc2nc(c1)CNCCNCCNC2.[Cu+2],,cyclic voltammetry,DMF,scan rate 100 mV/s,baseline: Fc/Fc+,half-wave potential,-859 mV
O=C(O)c1cc2cc(O)ccc2n1Cc1ccc(Cl)c(C(F)(F)F)c1,,,,,,logP,4.98
FC(F)(F)c1cc2nc(c1)CNCCNCCNC2.[Cu+2],,cyclic voltammetry,DMF,scan rate 100 mV/s,baseline: Fc/Fc+,half-wave potential,-914 mV
C/C(N)=N/C(=N\S(=O)(=O)c1ccc(C(F)(F)F)cc1)N1C[C@H](c2ccccc2)C(c2ccc(Cl)cc2)=N1,,,"wild-type mice, bleomycin ear model, serum",10 mg/kg,,Cmax,5 to 10 µM
COc1cccc2c1C(=O)c1c(O)c3c(c(O)c1C2=O)C[C@@](O)(C(=O)CO)C[C@@H]3O[C@H]1C[C@H](N)[C@H](O)[C@H](C)O1,,,,,,logP,1.62
COc1cc2nc(c1)CNCCNCCNC2.[Cu+2],,cyclic voltammetry,DMF,scan rate 100 mV/s,baseline: Fc/Fc+,half-wave potential,-988 mV
CCCCCCCCCOC(=O)c1ccc(O)cc1,,,,pH 7.4,,logD,4.45
O=C(O)CN(CC(=O)O)[C@H]1CCCC[C@@H]1N(CC(=O)O)Cc1ccccn1,,,,0.15 M NaCl,,sum of log KiH,19.7
CN1CCN(c2ccc3[nH]c(-c4ccc5[nH]c(-c6ccc(OCCCCNC(=O)c7ccc8c(c7)C(=O)OC87c8ccc(N(C)C)cc8[Si](C)(C)c8cc(N(C)C)ccc87)cc6)nc5c4)nc3c2)CC1,,,PBS,"2 µM, added: 30 µM hairpin DNA",,fluorescence quantum yield,0.374 ± 0.006
COc1ccc(Nc2nc(Nc3ccc(OCC[18F])cc3)ncc2Br)cc1,,,"S180 tumour-bearing mice, blood","intravenous, 120 min",,tissue uptake,0.81 ± 0.01 %ID/g
CCOC(=O)C(c1cc(Cl)c2cccnc2c1O)N1CCOCC1 (stereo not shown),COLO 205,cell viability,,,,IC50,2050 nM
CCC(=[NH+][Pt-2]1([Cl])[NH2+]CCC[NH2+]1)N(C)CCNc1c2ccccc2[nH+]c2ccccc12.O=[N+]([O-])[O-].O=[N+]([O-])[O-] (stereo not shown),,,,9-aminoacridine chromophore,,pKa,9.5 to 10

# Excerpt of the above:
SMILES,tested on,assay,system,conditions,how to read,quantity,value
C/C(N)=N/C(=N\S(=O)(=O)c1ccc(C(F)(F)F)cc1)N1C[C@H](c2ccccc2)C(c2ccc(Cl)cc2)=N1,,,"wild-type mice, bleomycin ear model, serum",10 mg/kg,,Cmax,5 to 10 µM
CC1(N(CC(=O)O)CC(=O)O)CN(CC(=O)O)CCN(CC(=O)O)C1,,"pH-potentiometry, item: logK2H",0.1 M KCl,25 °C,,protonation constant (log),6.52
CN1CCN(c2ccc3[nH]c(-c4ccc5[nH]c(-c6ccc(OCCCCNC(=O)c7ccc8c(c7)C7(OC8=O)c8ccc(N(C)C)cc8[Si](C)(C)c8cc(N(C)C)ccc87)cc6)nc5c4)nc3c2)CC1,,,PBS with 0.1% SDS,,,fluorescence quantum yield,0.524 ± 0.001
